# Experimental data gathered from unrelated publications.
# Parts stem from different laboratories: compare values within a part only.

# Series 1
# Target: RNA binding protein fox-1 homolog 2, RRM domain, GST-SBP tag (RBFOX2, Homo sapiens, UniProt O43251-10, residues 100-194)
# Technique: RNA Bind-n-Seq
# Form: RNA
# Matrix: in vitro
# Tested at: 365 nM
# Notes: natural RNA segment, single round, ends assumed
# Relative to: no-protein control
# Direction: higher = stronger binding
# Target sequence (chain): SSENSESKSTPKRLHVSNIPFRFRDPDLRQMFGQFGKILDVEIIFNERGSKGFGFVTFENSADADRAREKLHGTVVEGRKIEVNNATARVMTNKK
Oligonucleotide,RBNS enrichment (R)
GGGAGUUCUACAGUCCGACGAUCCAAGGCCAGGGUCUGCUGCACUGCUGUUCUGAUAAUAGGUUCUUAACAUUGUAUGUAUAUGUGUUUGCUUUGGGAGGAGGUGGCACUGUGUUAGUUGACAGUUGUGGGCUUGGAAUUCUCGGGUGCCAA,4.73
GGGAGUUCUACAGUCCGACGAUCAUCUUGCUUUUCAGAAAUUACCGAAUGUGUAUAAACAAAUAAAGAAAAAUAAUUUAGCUGUGUUUUAGACAGCAUUAGAAUAUAUUGUUCAGCACAGUAAAAUAUAUUUGUGGAAUUCUCGGGUGCCAA,0.617
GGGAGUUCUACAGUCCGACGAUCUUUCUAAACCAGAGGACAAAAGGGGUUAAUGUUACUUUAAAAUUACAUUCUAUAUAUAUAUAAAUAUAUAUAAAUAUAUAUUAAAAUACCAGUUUUUUUUCUCUGGGUGCUGGAAUUCUCGGGUGCCAA,2.21
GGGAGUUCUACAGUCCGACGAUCGUGGAUGGAGCAAGACUGUGAACACGUGUGACCCGGACCCACCUACAGCCCGGUGGACCUUCAGCCAAGAAACGCUGACUUCAUUCUCUAUUGCCCCUGCUGAGGGGCUCUGGAAUUCUCGGGUGCCAA,0.556
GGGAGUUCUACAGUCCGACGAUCACCAUUGUCUCCCCGCUGAACUCGGCUGCCUUGCCACCGAGGUGCCAGCCAGGCUAGAGGAGUGCCAGCAGGUCCCAGUAGGUCCUUAGGAAGGCUGUCAAGGCCCAGUCUGGAAUUCUCGGGUGCCAA,0.266
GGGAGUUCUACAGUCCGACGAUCGGUAGGCCUAGCAGGUAGAGCUCAGGCCAGGGGUCUUUCCUCUGAGUCGGGAACAUGUCCAUUCUACCUCAGGGUUGGGUGGUGCGAGGCCAAGCCAGGCCUGGCUGUGUUGGAAUUCUCGGGUGCCAA,0.255
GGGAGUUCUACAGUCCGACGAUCUCAAGAAGAUUAAAAAACUGAUGCUUUUUUGGGAUGGAAUUGGACACAGCCCAAGGAGGAAAUGAUCACAGCUGGGGUUGAAGGCUUCACCUGCACAUCACUGCACAGACUGGAAUUCUCGGGUGCCAA,0.684
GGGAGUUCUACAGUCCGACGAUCAAUAUGCUUCCAACCCAAAGGCCUUUCAUCUCAGUAUCUGUCAAACUUGAAUAACGUCUUCUCUUUACUAUUACACACGAGGCAGCCUAUUAACCUGUGUCUUAGAAUUGUGGAAUUCUCGGGUGCCAA,0.377
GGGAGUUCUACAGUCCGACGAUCGUUGGAGUGCAGUGGCACGAUCUCGGCUCACUGCAACCUCACCUCCCGGGUUCAAGAGAUCCUCCUGCCUCAGCCUCCUGAGCAGCUGGGACUACAGGCGCAUGCCACCAUGGAAUUCUCGGGUGCCAA,1.64

# Series 2
# Target: Phosphate system positive regulatory protein PHO4, full length, GST-tagged (PHO4, Saccharomyces cerevisiae, UniProt P07270, residues 1-312)
# Technique: competition protein-binding microarray
# Form: double-stranded DNA, one strand shown
# Matrix: in vitro
# Tested at: 2 µM
# Notes: whole 60-bp probe, lowest competitor level
# Together with: Cbf1 competitor, 0.05 µM
# Direction: higher = stronger binding
# Construct (chain): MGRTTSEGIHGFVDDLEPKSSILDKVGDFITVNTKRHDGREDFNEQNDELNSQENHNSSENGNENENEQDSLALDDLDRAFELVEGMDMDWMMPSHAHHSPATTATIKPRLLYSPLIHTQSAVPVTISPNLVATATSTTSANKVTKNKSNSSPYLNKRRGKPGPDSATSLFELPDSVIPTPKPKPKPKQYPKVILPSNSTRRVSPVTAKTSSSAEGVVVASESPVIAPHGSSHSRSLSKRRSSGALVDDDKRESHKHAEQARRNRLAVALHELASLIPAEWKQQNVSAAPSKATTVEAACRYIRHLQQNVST
Oligonucleotide,fluorescence intensity [a.u.]
CATACCCAACCTTGTCACAATACTTAAGATATTTGTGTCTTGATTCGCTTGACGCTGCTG,4030
CGAGGACGCCTGCTCTTTCACTTTGTATGGTGATGGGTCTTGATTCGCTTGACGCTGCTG,4530
AAACGGTCTTGGCATCAGGTGCAGTTGCCGTTTGTGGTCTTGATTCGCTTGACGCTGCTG,4170
CCAGAACGCCCAGAAAACGTGAAGGACACTACATACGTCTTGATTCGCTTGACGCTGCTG,8890
GATGCTAAGAAGATATCCGTGATGGGCATCCGAGCTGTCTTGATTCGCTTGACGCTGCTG,3130
TAAACTCACCTAATTCGCATGACAAGGTCCCTGAAAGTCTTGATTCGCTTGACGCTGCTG,4770
AAAGCGGTAATTTGTCGAGTGGGTGCAGATATCTATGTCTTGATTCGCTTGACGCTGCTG,4330
AAATTACTAAGTTGTCACGTTACTTACCCCGTATGAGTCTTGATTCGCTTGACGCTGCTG,8770
GTCGTCGTCGTACTCATCTAATAGTTCAATGTCTAAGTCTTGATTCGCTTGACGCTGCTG,3000
ACAAATTAATGGCACAACGTGGGTATGACGAAAAAGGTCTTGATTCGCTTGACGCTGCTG,14400
CCTTCACTATTTTAACATGTGGAATTCTTGAAAGAAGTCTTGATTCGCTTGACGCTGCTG,8850
AAATTACTAAGTTGGTTAGTGGGTGACGCCGTATGAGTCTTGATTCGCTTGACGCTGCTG,3800
AAGTTCACTTGATGTGGCGTGATGGTCCTTTACCCGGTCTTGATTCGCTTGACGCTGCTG,5010
AAGGTAGCCAAGAATACCGTGATGGTTGCTTAGTATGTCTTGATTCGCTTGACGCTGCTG,4750
CCGCAACTCCGCGATCGCGCGCCAAGGGCCGTCGGCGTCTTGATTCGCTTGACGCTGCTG,2340
CGCCAATCCAGCATGAGCATGACGCCGGTTCGAGAAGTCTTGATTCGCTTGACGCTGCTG,6330
GTTTCTGTCGCAAAGCACGTTATGGCCACAATTTTGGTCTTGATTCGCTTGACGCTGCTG,8500
CACATTATCAAACGTCACCTGCGTATTATCAACCGGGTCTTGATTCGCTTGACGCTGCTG,5780
TGCCCAAAGCTCTGGCACGTATGAAACTGCTTTTCGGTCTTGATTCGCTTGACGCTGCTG,4870
CGTCCTAGTGATTGGTGCGTGGGTGCCATGAGGAAGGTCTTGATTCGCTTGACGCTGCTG,10800
GTCTTGTCTCATTGAAGAGTGGGTGTCCCCACTTCAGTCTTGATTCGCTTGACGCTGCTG,3810

# Series 3
# Target: Sal-like protein 4, full length isoform B (SALL4, Homo sapiens, UniProt Q9UJQ4-2, residues 1-616)
# Technique: universal PBM
# Form: double-stranded DNA, one strand shown
# Matrix: in vitro
# Tested at: not given
# Notes: 8-mer, flanks averaged, mean of replicates
# Direction: higher = stronger binding
# Target sequence (chain): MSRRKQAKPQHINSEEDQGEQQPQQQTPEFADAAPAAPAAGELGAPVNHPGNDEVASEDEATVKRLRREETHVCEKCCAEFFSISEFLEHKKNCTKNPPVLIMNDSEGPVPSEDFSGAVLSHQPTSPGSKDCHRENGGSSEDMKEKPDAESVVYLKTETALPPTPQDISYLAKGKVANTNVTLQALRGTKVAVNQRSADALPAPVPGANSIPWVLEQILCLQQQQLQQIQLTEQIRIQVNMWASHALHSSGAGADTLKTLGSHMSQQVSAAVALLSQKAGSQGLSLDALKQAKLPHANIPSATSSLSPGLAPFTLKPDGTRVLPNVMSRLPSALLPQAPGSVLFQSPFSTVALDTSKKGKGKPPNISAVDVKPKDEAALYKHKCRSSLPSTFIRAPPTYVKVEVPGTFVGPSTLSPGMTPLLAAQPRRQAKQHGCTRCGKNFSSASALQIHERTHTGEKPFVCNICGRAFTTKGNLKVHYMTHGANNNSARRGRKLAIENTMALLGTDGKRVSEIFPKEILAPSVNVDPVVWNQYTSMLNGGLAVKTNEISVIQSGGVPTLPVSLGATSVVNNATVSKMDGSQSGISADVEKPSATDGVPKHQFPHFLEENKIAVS
Oligonucleotide,E-score
GAGTGTCA,0.0162
CTACGATC,0.0234
GGCCATCA,-0.176
CTTTACCA,0.123
ACGCGGCG,-0.299
ACGCCACA,0.0505
ATCGTCTA,-0.0674
ATATCTGG,0.216
AGGGGATC,-0.0775
CCCCCGAG,-0.209
AAATTGTA,0.324
TAACGGAA,-0.025
GCGCCAAC,-0.17
ACTGATTC,0.0194
GCTATCCA,-0.0728
TGTATCAA,0.187

# Series 4
# Target: Histone acetyltransferase KAT6A, winged helix 2, GST fusion (KAT6A, Homo sapiens, UniProt Q92794, residues 85-181)
# Technique: protein binding microarray
# Form: double-stranded DNA, one strand shown
# Matrix: in vitro
# Tested at: not given
# Notes: 8-mer, flanks averaged, mean of 2 arrays, mostly near background
# Relative to: not given
# Direction: higher = stronger binding
# Construct (chain): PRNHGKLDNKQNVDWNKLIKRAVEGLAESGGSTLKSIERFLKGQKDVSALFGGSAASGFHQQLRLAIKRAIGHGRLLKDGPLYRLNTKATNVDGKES
Oligonucleotide,E-score
AGAATCCA,-0.0363
GGAATACA,-0.0573
AACGAATA,-0.0869
CAATGCTA,-0.00757
ACTGGCCT,0.0211
GGATCTCA,0.0345
CTCTGTCA,0.0128
TACATTCA,-0.168
CTGTTCCA,-0.119
GCGCACGA,-0.0607
ACTTGTCC,-0.132
ATCTTTTC,-0.106
ACGGTAGA,-0.154
GATACCAC,0.0979
AGACGCAT,-0.0654
CTGAAAGC,0.0373
CGGACTCC,0.152
CCTGACGA,0.145
AGGATAAA,0.0294
GAAAACTA,-0.0425
GGTATCTA,-0.0406
AACTGCCG,0.221
ATTTCGCC,0.106

# For quick reference, copied from above (series 2):
Oligonucleotide,fluorescence intensity [a.u.]
TAAACTCACCTAATTCGCATGACAAGGTCCCTGAAAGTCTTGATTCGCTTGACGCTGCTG,4770
AAAGCGGTAATTTGTCGAGTGGGTGCAGATATCTATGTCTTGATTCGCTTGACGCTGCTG,4330
AAATTACTAAGTTGTCACGTTACTTACCCCGTATGAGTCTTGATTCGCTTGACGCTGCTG,8770
GTCGTCGTCGTACTCATCTAATAGTTCAATGTCTAAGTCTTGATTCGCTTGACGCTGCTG,3000
ACAAATTAATGGCACAACGTGGGTATGACGAAAAAGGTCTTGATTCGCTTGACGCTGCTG,14400
CCTTCACTATTTTAACATGTGGAATTCTTGAAAGAAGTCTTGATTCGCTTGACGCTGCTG,8850
AAATTACTAAGTTGGTTAGTGGGTGACGCCGTATGAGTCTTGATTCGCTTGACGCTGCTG,3800
AAGTTCACTTGATGTGGCGTGATGGTCCTTTACCCGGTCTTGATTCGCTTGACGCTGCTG,5010
AAGGTAGCCAAGAATACCGTGATGGTTGCTTAGTATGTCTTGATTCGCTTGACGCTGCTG,4750
CCGCAACTCCGCGATCGCGCGCCAAGGGCCGTCGGCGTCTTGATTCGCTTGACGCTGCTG,2340
CGCCAATCCAGCATGAGCATGACGCCGGTTCGAGAAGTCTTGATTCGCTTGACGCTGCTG,6330
GTTTCTGTCGCAAAGCACGTTATGGCCACAATTTTGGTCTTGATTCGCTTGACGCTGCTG,8500
